Experimental data gathered from unrelated publications.
Substitutions count along the parent as printed. ± gives the spread as reported.
WRKY11 full length assumed: WRKY11 full length assumed (Arabidopsis thaliana, UniProt Q9SV15)
Chain of UniProt Q9SV15 (whole entry, looked up): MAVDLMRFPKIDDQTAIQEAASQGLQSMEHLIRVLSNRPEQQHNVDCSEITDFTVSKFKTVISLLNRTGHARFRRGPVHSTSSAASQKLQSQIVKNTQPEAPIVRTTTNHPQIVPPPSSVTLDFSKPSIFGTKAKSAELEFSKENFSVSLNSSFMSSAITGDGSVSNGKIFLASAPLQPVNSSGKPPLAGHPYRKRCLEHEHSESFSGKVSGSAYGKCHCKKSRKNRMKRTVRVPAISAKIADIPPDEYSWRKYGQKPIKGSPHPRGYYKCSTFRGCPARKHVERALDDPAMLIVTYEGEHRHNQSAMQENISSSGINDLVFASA
MED5: MED5 (Saccharomyces cerevisiae)
brat: brat 756-1037 (Drosophila melanogaster, UniProt Q8MQJ9)
Chain of UniProt Q8MQJ9 (whole entry, looked up): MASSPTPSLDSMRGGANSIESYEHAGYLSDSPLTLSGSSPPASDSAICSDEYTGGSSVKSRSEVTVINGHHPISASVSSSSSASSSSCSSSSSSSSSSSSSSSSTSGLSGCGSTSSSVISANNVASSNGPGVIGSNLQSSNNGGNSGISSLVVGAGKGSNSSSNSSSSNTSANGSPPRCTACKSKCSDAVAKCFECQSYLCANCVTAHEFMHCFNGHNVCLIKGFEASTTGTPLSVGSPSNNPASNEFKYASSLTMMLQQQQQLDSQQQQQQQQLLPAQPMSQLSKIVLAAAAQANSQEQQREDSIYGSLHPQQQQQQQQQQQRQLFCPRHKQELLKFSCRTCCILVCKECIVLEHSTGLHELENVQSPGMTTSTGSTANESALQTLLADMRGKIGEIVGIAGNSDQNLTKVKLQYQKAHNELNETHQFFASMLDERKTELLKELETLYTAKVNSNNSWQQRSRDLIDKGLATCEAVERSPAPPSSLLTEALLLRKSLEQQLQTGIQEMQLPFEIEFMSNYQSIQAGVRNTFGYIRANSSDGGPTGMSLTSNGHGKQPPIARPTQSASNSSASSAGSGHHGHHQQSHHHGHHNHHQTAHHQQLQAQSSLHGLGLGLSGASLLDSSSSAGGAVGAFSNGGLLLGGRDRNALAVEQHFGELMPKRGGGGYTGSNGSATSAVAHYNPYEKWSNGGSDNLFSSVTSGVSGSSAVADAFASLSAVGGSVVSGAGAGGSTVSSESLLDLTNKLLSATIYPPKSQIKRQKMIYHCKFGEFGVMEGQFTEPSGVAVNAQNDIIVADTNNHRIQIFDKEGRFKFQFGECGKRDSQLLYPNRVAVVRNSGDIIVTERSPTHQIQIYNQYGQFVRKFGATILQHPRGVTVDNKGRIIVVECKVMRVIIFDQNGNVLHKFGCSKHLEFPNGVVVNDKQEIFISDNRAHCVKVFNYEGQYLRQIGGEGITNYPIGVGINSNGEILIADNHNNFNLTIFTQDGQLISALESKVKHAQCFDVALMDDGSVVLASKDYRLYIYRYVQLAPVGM
Transcription factor bHLH93: Transcription factor bHLH93 (Gossypium hirsutum, UniProt A0ABM3A805)
CASP1/SUMO CARD: CASP1/SUMO CARD, C-terminal TAMRA label
polA D424A: polA fragment D424A (Escherichia coli)
T1: Aebp2 223-496 (Mus musculus); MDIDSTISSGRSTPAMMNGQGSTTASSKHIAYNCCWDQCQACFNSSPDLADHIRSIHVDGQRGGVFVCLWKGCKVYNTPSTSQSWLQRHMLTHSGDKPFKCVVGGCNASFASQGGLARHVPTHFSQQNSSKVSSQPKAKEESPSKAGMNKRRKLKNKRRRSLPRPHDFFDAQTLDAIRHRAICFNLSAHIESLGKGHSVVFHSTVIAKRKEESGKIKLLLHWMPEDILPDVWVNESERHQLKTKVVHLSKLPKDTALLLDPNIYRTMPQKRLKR
T2: ZFP57 residues 227-287 C232F (Homo sapiens); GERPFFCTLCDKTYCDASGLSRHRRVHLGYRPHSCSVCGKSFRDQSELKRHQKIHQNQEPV
T3: NFATC3 393-708; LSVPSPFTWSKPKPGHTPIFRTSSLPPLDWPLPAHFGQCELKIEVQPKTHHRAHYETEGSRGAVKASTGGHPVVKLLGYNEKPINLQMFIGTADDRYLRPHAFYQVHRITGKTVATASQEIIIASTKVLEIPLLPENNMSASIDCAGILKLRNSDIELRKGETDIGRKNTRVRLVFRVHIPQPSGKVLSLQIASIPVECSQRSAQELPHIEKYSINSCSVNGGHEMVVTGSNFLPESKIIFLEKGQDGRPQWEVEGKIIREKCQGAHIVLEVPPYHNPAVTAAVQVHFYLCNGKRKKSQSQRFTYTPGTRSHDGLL
P1: MED17 (Saccharomyces cerevisiae); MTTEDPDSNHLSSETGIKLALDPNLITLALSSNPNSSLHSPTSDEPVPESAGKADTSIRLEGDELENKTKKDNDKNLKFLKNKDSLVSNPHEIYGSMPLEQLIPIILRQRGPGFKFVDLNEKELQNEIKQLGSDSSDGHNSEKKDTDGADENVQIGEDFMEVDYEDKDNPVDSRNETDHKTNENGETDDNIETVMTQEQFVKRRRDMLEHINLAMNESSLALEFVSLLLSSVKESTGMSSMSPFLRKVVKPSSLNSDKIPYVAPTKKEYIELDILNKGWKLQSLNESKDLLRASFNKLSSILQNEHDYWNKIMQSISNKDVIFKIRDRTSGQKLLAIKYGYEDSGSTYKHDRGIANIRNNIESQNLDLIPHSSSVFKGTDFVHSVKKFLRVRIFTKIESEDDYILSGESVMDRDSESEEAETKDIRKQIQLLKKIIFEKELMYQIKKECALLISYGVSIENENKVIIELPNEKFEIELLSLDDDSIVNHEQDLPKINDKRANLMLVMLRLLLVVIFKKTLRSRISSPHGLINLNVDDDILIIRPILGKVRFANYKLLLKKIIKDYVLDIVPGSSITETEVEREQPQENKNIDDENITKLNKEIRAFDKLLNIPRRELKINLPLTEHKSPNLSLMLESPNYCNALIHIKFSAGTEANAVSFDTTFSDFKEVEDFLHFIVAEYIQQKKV; partner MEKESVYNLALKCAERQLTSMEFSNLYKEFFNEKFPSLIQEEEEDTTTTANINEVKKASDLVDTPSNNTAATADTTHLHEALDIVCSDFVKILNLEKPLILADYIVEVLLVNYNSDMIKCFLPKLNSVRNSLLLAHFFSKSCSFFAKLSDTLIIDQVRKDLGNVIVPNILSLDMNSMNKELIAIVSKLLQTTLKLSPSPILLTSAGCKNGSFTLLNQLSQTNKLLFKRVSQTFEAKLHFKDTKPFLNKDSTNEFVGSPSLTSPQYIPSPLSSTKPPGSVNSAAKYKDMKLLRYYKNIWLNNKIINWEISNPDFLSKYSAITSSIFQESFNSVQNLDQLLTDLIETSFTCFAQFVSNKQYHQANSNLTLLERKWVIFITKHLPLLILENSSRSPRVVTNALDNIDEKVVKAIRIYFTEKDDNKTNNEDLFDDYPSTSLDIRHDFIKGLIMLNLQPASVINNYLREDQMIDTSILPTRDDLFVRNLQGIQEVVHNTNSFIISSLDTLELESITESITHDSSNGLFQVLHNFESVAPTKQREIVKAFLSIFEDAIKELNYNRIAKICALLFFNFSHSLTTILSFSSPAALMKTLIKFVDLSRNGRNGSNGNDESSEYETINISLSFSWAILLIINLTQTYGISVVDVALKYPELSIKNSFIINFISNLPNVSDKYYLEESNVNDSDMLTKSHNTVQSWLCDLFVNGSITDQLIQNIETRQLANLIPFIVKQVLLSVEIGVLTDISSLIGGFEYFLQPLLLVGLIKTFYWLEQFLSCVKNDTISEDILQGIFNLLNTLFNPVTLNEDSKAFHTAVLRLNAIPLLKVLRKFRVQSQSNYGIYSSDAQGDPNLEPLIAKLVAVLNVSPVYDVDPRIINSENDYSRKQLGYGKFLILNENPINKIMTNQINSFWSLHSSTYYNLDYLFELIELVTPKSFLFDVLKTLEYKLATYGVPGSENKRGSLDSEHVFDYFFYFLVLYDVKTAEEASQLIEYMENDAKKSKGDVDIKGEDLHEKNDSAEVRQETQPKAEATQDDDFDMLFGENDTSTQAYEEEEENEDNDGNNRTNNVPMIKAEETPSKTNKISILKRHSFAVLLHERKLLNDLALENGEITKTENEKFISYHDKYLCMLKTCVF
P2: IRGM; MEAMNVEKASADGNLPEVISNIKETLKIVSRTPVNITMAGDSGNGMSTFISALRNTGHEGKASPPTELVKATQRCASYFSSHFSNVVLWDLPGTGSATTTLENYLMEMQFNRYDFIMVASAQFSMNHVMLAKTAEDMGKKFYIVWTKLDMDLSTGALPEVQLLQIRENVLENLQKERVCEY
B1: protein (Thermotoga neapolitana, UniProt B9K712); chain MKMLYDLAKKRKTVRRFKKEKPPLEDLIYSLKVANEAPSGMNAQPWRFLIVEDEKLKGQIRRVCERSEKTFYENVRGRLKEWLDEKRFTWRKPFLKEAPYLLLVFSEKSAPYSRESVWLAVGYLLLALEEKGLGSVPYTPPDFREVEKLVNTPSELRLEVILPVGYPDDPKPKYPRNEVIVRYNTF
P3: CASP1 CARD domain (Homo sapiens); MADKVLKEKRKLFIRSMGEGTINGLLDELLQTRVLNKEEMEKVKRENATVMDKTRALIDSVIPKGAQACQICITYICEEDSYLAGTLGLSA
Chain of UniProt P09086 (whole entry, looked up): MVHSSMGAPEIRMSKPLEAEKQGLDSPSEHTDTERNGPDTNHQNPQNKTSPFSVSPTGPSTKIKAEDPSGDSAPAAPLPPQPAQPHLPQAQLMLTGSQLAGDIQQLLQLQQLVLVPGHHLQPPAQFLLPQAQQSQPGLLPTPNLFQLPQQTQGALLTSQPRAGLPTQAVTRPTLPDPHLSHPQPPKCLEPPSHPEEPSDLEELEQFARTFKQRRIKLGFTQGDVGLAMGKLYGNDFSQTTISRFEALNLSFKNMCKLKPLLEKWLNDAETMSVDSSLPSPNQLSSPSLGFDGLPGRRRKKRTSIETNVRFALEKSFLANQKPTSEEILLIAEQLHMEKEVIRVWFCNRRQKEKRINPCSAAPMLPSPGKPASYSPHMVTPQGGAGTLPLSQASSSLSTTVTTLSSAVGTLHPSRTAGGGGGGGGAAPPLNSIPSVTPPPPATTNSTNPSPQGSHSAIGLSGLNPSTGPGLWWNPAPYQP
Chain of UniProt Q8IZQ5 (whole entry, looked up): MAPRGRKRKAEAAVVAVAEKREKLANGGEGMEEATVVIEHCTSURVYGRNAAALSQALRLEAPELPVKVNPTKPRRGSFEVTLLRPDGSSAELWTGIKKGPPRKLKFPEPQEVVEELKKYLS
Chain of UniProt P17676 (whole entry, looked up): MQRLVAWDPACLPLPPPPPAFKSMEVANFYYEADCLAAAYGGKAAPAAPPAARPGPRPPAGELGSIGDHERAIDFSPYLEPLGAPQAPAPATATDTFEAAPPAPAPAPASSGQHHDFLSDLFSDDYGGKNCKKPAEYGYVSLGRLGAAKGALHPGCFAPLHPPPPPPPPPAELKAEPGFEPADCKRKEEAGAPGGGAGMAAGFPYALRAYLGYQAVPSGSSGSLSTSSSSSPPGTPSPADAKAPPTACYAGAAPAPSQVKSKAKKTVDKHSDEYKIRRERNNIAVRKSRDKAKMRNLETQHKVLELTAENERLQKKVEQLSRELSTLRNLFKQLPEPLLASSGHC
Chain of UniProt Q7Z739 (whole entry, looked up): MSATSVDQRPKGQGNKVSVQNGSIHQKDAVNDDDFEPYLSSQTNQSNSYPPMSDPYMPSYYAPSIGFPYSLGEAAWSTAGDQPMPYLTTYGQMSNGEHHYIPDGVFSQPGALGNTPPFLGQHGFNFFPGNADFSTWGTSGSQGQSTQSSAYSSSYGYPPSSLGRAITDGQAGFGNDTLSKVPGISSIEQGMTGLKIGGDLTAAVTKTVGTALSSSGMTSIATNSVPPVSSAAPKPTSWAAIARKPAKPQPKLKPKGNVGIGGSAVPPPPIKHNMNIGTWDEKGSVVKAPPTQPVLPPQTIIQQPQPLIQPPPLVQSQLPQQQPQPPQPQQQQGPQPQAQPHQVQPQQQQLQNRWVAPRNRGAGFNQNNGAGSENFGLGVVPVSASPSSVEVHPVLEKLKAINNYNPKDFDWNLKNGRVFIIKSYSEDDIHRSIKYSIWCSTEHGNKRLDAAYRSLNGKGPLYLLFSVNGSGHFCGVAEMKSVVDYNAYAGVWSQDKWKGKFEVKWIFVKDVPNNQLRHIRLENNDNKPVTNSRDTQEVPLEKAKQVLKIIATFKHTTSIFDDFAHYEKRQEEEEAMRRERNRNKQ
Chain of UniProt Q96PU8 (whole entry, looked up): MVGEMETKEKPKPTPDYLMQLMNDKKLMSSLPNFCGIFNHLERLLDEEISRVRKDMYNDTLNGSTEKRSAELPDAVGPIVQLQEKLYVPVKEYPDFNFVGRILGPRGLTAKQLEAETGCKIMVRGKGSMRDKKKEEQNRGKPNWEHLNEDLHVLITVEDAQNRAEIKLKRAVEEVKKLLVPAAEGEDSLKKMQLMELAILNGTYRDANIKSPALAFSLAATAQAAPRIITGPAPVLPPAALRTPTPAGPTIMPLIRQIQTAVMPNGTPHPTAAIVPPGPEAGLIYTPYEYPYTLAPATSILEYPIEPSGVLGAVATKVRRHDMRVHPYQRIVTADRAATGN
Chain of UniProt Q94JM3 (whole entry, unmodified, looked up): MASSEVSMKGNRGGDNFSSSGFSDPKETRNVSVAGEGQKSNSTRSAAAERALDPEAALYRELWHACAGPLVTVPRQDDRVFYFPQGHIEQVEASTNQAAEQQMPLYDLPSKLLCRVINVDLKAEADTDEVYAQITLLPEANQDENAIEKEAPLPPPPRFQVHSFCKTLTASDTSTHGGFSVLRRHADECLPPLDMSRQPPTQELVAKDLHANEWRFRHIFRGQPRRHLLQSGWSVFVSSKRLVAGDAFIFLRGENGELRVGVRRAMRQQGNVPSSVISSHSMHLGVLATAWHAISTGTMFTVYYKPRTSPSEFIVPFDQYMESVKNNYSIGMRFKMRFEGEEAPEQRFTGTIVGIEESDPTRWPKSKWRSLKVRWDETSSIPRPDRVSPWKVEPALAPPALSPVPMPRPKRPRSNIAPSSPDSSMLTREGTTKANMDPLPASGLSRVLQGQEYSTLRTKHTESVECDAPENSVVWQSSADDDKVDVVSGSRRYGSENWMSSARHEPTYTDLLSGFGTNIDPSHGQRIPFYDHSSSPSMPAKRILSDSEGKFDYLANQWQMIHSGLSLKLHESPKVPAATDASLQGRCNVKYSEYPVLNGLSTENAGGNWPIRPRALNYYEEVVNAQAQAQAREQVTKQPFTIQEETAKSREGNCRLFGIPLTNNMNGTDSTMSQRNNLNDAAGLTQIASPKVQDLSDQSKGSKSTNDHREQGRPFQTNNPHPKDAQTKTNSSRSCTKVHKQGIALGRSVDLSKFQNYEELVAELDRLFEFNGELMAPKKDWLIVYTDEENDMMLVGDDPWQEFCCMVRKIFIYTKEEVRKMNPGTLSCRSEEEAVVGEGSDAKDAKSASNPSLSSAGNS

Molecule	target or system	assay	test system	conditions	scale	quantity	result
TTGGTTGACTATCAACATCTTATTGACCAAAT (dsDNA)	WRKY11 full length assumed	EMSA	double-stranded DNA, one strand shown	two complexes		binding	binds
P1 M504P	MED5	co-IP mass spectrometry	crude extract		higher = more binding	peptide counts	13
GGGAGACCUAGCCUCAUAUAAUCGUUGUCCAGAAUGGGAUGGAUUCGUAGCAUAAGUUUUCCAAACAUUAUUUUGUUGUCGAAAAUGGGACGGAAGCCAAUUAAGCCGCUA (ssRNA)	brat	EMSA	RNA			binding	binds
GACAUGGUCCGGUAGUUCAGUUGGUUAGAAUGCCUGCCUGUCACGCAGGAGGUCGCGGGUUCGAGUCCCGUCCGGACCG (tRNA (Bacillus subtilis); 5'-GMPS, tRNA fold)	PRORP1 77-572 Y140F (Arabidopsis thaliana, UniProt Q66GI4)	fluorescence anisotropy	folded RNA	NaCl 1 M, extrapolated	baseline: wild-type target	relative affinity	6.5 fold
TTGAAAACAACACTTGTCCTCTAGGA (dsDNA)	Transcription factor bHLH93	EMSA	double-stranded DNA, one strand shown			binding	binds
P2 S47N	TFEB	co-IP		read off a plot, added: GTP/GDP	baseline: unchanged protein, higher = more binding	relative binding	0.37
TTATTCAGCCATCAAAAGTTGACGAATAAT (dsDNA)	WRKY11 full length assumed	EMSA	double-stranded DNA, one strand shown			binding	no binding
AAGAAGAAAGCATTTGAAGACTACTA (dsDNA)	Transcription factor bHLH93	EMSA	double-stranded DNA, one strand shown			binding	binds
TTATTCAGCCATCAAAAGTTCACCAATAAT (dsDNA)	WRKY11 full length assumed	EMSA	double-stranded DNA, one strand shown			binding	no binding
ATCGATTCACATTCTTCTACATGATAACCACCAGTTGTGCCAGCACCATTTGTT (dsDNA)	T1, Aebp2 223-496 (Mus musculus)	competition binding	double-stranded DNA, one strand shown	added: labelled T1 probe		binding	binds
TTATTCAGCCATCAAAAGTTGACCGATAAT (dsDNA)	WRKY11 full length assumed	EMSA	double-stranded DNA, one strand shown			binding	binds
ATCAGTCTAGACATACA (dsDNA)	Smad5 1-143 H80A (Mus musculus, UniProt P97454)	EMSA	double-stranded DNA, one strand shown			binding	binds
B1 (protein)	N[C@@H](Cc1ccc(O)c(I)c1)C(=O)O	steady-state kinetics		pH 7.4, 60 °C		kcat/Km	167000 ± 100000 M⁻¹ s⁻¹
TTATTCAGCCATCAAAGGTTGACCAGTAAT (dsDNA)	WRKY11 full length assumed	EMSA	double-stranded DNA, one strand shown			binding	binds
TGGGCTTTGCCGCCCGCGGC (dsDNA (Homo sapiens); 5-methylcytosine)	T2, ZFP57 residues 227-287 C232F (Homo sapiens)	EMSA	double-stranded DNA, one strand shown			binding	binds
AGTCTTTTTGGTCTCTGGTCGGTCGACAATCCGTGTG (dsDNA; 5-C6-amino-dT labels)	ARF2 1-859 D797S/D798S (Arabidopsis thaliana, UniProt Q94JM3)	smFRET titration	double-stranded DNA, one strand shown			K1/2	181 nM
CGTCTGCCTGCCCCCTTGAACTCCCCAAGAGCCAAGAACCAGCG (dsDNA)	Uncharacterized protein 424-651 (Zea mays, UniProt A0A1D6GZW1)	EMSA	double-stranded DNA, one strand shown			binding	binds
CTTCCTCCAGATGAGCTCATGGGTTTCTCCACCAAGGAAGTTTTCCGCTGGTTG (dsDNA)	T3, NFATC3 393-708	EMSA	double-stranded DNA, one strand shown			binding	binds
ATTATTGACTTAATTACTAGTTGACCAATA (dsDNA)	WRKY11 full length assumed	EMSA	double-stranded DNA, one strand shown	two complexes		binding	binds
P3 K64E	CASP1/SUMO CARD	fluorescence polarization		40 min, read off a plot	higher = more binding	signal	310 mP
TTATTCAGCCATCAAAAGCTGACCAATAAT (dsDNA)	WRKY11 full length assumed	EMSA	double-stranded DNA, one strand shown			binding	no binding

Molecule	target or system	assay	test system	conditions	scale	quantity	result
ACAATGGAAATATCTTCAAATTATCTCAACACTTATGGCCAGTTATCGGGTGTC (dsDNA)	T1, Aebp2 223-496 (Mus musculus)	competition binding	double-stranded DNA, one strand shown	added: labelled T1 probe		binding	binds
ACUUGGUUUAACUUCAUUUGUGACCUUUUCUUGUA (ssRNA)	Uncharacterized protein (Zea mays, UniProt K7TID7)	EMSA	RNA			binding	binds
DNA 1 AGGATTGTGCAATAT / DNA 2 ATATTGCGCAATCCT (dsDNA; 5mC, mismatch at central CpG)	CEBPB 269-344 (Homo sapiens, UniProt P17676)	fluorescence polarization	double-stranded DNA			binding	binds
P3 T49R V50R M51R	CASP1/SUMO CARD	fluorescence polarization		40 min, read off a plot	higher = more binding	signal	300 mP
GATCTTTAGTTAACTTCCTCTCAGGCCACTCCAGATC (dsDNA)	T1, Aebp2 223-496 (Mus musculus)	competition binding	double-stranded DNA, one strand shown	added: labelled T1 probe		binding	no binding
TTATTCAGCCATCAAAAGATGACCAATAAT (dsDNA)	WRKY11 full length assumed	EMSA	double-stranded DNA, one strand shown			binding	no binding
GTGGATCTTTCACTTCCTTAGTTAGAGTCACGCCAATGTATTTTATA (dsDNA)	T1, Aebp2 223-496 (Mus musculus)	competition binding	double-stranded DNA, one strand shown	added: labelled T1 probe		binding	binds
TTGAAAATATGTGTAATATT (dsDNA)	POU2F2 full length assumed (Homo sapiens, UniProt P09086)	competition	double-stranded DNA, one strand shown	not purified		binding	no binding
P1 Q444P	MED5	co-IP mass spectrometry	crude extract		higher = more binding	peptide counts	11
TGCTGATTGGCCATGTGCGCTCACCCGAGGGGCGGGG (dsDNA)	HIF1A/ARNT (Homo sapiens)	EMSA	double-stranded DNA, one strand shown	not purified		binding	binds
CCTCTTCCCTCACCTCTTCTTGACCTCATTCGTACCCATTGACCTTCGCAACCACCTGCGAAGGTCAATGGGTACGAATGAGGT (hairpin DNA; hairpin, 5' overhang, 3' ddT)	polA D424A	SPR		added: dTTP 100 µM		Kd	3.6 ± 0.95 nM
GGUAUACUAAAAU (ssRNA)	QKI 76-205 (Homo sapiens, UniProt Q96PU8)	NMR titration	RNA			binding	binds
TATTTTGTTGTCGAAAATTGTACATAA (ssDNA (Drosophila melanogaster); dT instead of dU)	brat	EMSA	single-stranded DNA			binding	no binding
DNA 1 TTTTTTTTTTTGCAGATATGGGAAGAACTCGTCCCAAGTCTCACAG / DNA 2 CTGTGAGACTTGGGACGAGTTCTTCCCATATCTGC (dsDNA)	SELENOH 2-15 (Homo sapiens, UniProt Q8IZQ5)	BLI	double-stranded DNA			binding	no binding
GATCTTTAGTTAACTTCCTCTAAAAAAACAGGCCACTCCAGATC (dsDNA)	T1, Aebp2 223-496 (Mus musculus)	competition binding	double-stranded DNA, one strand shown	added: labelled T1 probe		binding	binds
ACATCGTATCCATGTGATATATCACA (dsDNA)	Transcription factor bHLH93	EMSA	double-stranded DNA, one strand shown			binding	binds
CCTCTTCCCTCACCTCTTCTTGACCTCATTCGTACCCATTGACCTTCGCAACCACCTGCGAAGGTCAATGGGTACGAATGAGGT (hairpin DNA; hairpin, 5' overhang, dG-C8-FABP 22, 3' ddT)	polA D424A	SPR		added: dTTP 100 µM		Kd	0.36 ± 0.07 nM
GTCGACCAGCTGAGTCGACCAGCTG (ssDNA; N6-methyl-dA)	YTHDF3 400-585 (Homo sapiens, UniProt Q7Z739)	pull-down	single-stranded DNA			binding	binds
GGTAGAGACCTGTTGACTCGAAAGAGTCAACAGGTC (hairpin DNA; hairpin primer-template, 3' dideoxy end)	polA 324-928 D424A/K550C/L744C/C907S/E710A (Escherichia coli, UniProt P00582)	single-molecule FRET	folded DNA	binary complex		binding	binds
GGGAGACCUAGCCUCAUAUAAUCGUUGUCCAGAAUUGUAUAUAUUCGUAGCAUAAGUUUUCCAAACAUUAUUUUGGGGUCGAAAAUUGUACAUAAGCCAAUUAAGCCGCUA (ssRNA)	brat	EMSA	RNA			binding	no binding
